# Published values of several laboratories.
# Each numbered part is a random draw from the data of one study; scales do not carry over between parts. Substitutions count along the parent as printed.

# Series 1
# Target: Fragile X messenger ribonucleoprotein 1, C-terminal low-complexity region (Fmr1, Mus musculus, UniProt P35922)
# Method: RNA Bind-n-Seq
# Molecule type: RNA
# Sample: in vitro
# Tested at: 200 nM
# Setting: whole 134-nt RNA, ends assumed
# Added: 150 mM LiCl
# Relative to: input library
# Reading: higher = stronger binding
# All molecules: 7-deaza-guanosine replaces G
Strand,log2 enrichment
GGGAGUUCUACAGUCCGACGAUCGUCCUGUGCUACACAUCGUAUGUACCGAAUCGGAAAAAGGGAAAAAGGGGAAAAAGGGAAAGUAUUAUGUUACGCCGUUCGGAUCUGCACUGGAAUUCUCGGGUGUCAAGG,0.24
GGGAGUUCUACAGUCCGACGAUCAAGUCCUGUGCUACACAUCGUAUGUACCGAAUCGGGUUUGGGUGGGAAAAAAAGGGAAAGUAUUAUGUUACGCCGUUCGGAUCUGCACUUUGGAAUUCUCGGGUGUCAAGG,-0.967
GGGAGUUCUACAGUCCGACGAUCCAAGUCCUGUGCUACACAUCGUAUGUACCGAAUCGGAAAGGGGAAAGGGGAAAGGAAAGUAUUAUGUUACGCCGUUCGGAUCUGCACUUCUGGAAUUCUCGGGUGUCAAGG,-0.107
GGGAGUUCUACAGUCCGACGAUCGUCCUGUGCUACACAUCGUAUGUACCGAAUCAAAUUUUUAAAUUUUUAAAUUUUUAAAAAAGUAUUAUGUUACGCCGUUCGGAUCUGCACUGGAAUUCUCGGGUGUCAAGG,-3.6
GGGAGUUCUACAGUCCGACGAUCACCAUGCAGGUGGGCAUCUUUGGGAAGUGGGGCAAGGGGGGGAUAGGGAGGGGGGUAACACUUUGGGAACAGGUGGUCCCAGGUCAUUUCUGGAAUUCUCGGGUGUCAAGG,1.53
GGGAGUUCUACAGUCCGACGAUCCUGUGCUACACAUCGUAUGUACCGAAUCGGGGCCCCCCCGGGCCCCCCCGGGCCCCCCCGGAAAGUAUUAUGUUACGCCGUUCGGAUCUGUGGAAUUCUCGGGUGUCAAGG,-0.431
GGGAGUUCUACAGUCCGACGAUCAAGUCCUGUGCUACACAUCGUAUGUACCGAAUCGGGAAAGGGAGGGAAAAAAAGGGAAAGUAUUAUGUUACGCCGUUCGGAUCUGCACUUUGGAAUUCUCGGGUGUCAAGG,0.105
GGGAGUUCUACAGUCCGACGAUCUCCUGUGCUACACAUCGUAUGUACCGAAUCGGGGUUUUUUGGGUUUUUUGGUUUUUUGGGAAAGUAUUAUGUUACGCCGUUCGGAUCUGCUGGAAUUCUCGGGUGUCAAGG,-0.401
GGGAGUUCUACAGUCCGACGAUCAAGUCCUGUGCUACACAUCGUAUGUACCGAAUCGGAAAAAAAGGUUUGGUUUUUGGAAAGUAUUAUGUUACGCCGUUCGGAUCUGCACUUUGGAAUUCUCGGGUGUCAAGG,-2.88
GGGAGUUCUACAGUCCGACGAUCCUCAAGUCCUGUGCUACACAUCGUAUGUACCGAAUCGGAGGUUUUUUUGGAGGAAAGUAUUAUGUUACGCCGUUCGGAUCUGCACUUCCAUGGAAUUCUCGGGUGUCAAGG,-0.354
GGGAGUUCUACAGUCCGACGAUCUCAAGUCCUGUGCUACACAUCGUAUGUACCGAAUCGGGUGGGUGGGUUUUUGGGAAAGUAUUAUGUUACGCCGUUCGGAUCUGCACUUCCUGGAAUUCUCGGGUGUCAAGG,-2.07

# Series 2
# Target: RNA binding protein fox-1 homolog 2, RRM domain, GST-SBP tag (RBFOX2, Homo sapiens, UniProt O43251-10, residues 100-194)
# Method: RNA Bind-n-Seq
# Molecule type: RNA
# Sample: in vitro
# Tested at: 365 nM
# Setting: natural RNA segment, single round, ends assumed
# Relative to: no-protein control
# Reading: higher = stronger binding
# Target sequence (chain): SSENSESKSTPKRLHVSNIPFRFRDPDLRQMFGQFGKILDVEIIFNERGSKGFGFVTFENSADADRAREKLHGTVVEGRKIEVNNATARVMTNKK
Strand,RBNS enrichment (R)
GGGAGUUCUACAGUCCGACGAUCAUUAAGGAAAAAUGUUUUUAAUAUACAUUCUUAUUUUGUCCCACCCCUCCAGAAAUAAGCUGGAAAUCUUAACUUUUUGGGGGGUCUUUUUUGGUGUUUUAAUGGGCCCAUGGAAUUCUCGGGUGCCAA,0.451
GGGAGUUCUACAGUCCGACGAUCUCUCUAUUUUUCUGCAAAGGUCAAAAGACCCUGGUGUUGGGGGCCCUUUAGAGGGUGUGCUUUGGACGCUGACCUCUUAGGGCUUUAGGACAGAGGGACGAUGUUGAGUCUGGAAUUCUCGGGUGCCAA,0.308
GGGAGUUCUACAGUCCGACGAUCUCAUUUCUAUUAUUCCAAUUUACUGAUAUGAACAAAUAGAAGGUCCGUGUGAGCAGACGCUCAGAACAGAGCCCUUGGCCCUUCGAGUUCUUUCUUACGAGUUUGCCGUUUGGAAUUCUCGGGUGCCAA,0.356
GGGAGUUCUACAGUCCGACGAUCGGUAGUCCCCAUGGGACCUUAAAAGACCCAUAGCUGAGUAGUCUCCCUUGUCUACCCUGCUUUAAGAGGGUGAAUGACGGAAUAGACUUUAUGGUGUCAGUGAGUAGUUUUGGAAUUCUCGGGUGCCAA,0.505
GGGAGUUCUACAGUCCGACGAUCCUUUUGUAAGGUACUGAAUACUUAAUAUGUGGGAAACCCUUUUGCGUGGUCCUUAGGCUUACAAUGUGCACUGAAUCGUUUCAUGUAAGAAUCCAAAGUGGACACCAUUAUGGAAUUCUCGGGUGCCAA,0.348
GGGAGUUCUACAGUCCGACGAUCGUUUGCCUAGGUACAGAAUUAAUAGCCCUUAGCAACGACUGCUGCUGGUGUGUAUUUUUGUAAAUGUUAUGCACUCUGAAAGGAAAACACACAAAAGAAGAGAUUUUGUCUGGAAUUCUCGGGUGCCAA,0.593
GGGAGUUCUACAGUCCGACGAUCUUCUCUGAGUAGUGGCUCCCCAGGUUUGUCCUUUGAGCUGAGGCAGGAGGCUCACCCAUUCUUCUGAAUAGGAACUGGGUGUUCCCACCCCCCAAGGACUGCAGGGCUUUUGGAAUUCUCGGGUGCCAA,0.311
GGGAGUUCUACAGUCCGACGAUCUACUCUGCGUUGAUGUUUAUGAGAAGGUGGUCAUUAGAUGCAGUCUUUUCCUUUUUAAUCCCCUCUUAGCACUUCUGUGAGUGGAGAGGACAUUAAGUAAAAUUUGGAAUUGGAAUUCUCGGGUGCCAA,1.08
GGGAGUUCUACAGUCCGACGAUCGAGAGCUGGUGCCCAGAGACUGACAGCCUGAUGCUCCCUCCCUGCCCUUGCCUGGGGAAGCCCACCAGGGGUUCUGGCUUCUGAGGGGCACCUGUCCCUCCUCUCCCCUCUGGAAUUCUCGGGUGCCAA,0.541
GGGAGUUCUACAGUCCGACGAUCGAAAAGGGGGCAAGGUUUUGGCAUUAGAUGCACUUAACCCGGCUUCCACCAGCUUCUUCCCCUCUUCUCAGUCAUUACUGAGAAGGAUUGGUAUUCAAAGCAAAACUGACUGGAAUUCUCGGGUGCCAA,0.195
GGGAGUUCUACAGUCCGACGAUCGGUUCCCUGACAGCAGACAAGGCAGCUCUGGGAGGUAGCUAGUAUCCAAUAACCCAGGGGUUUCCUCAUGUGAUGCAAAUACUACGUGUCCAACCAAUCAGUGCUGUCAAUGGAAUUCUCGGGUGCCAA,0.417
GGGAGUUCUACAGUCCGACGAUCUCUAGUGUUCCGUCUUGUUUUGUGUUAAUUACAGCAUUGUGCUAAUGUAAAGACUCUGCCUUUGCGAAGCCAGCUGCAGUGCUGUAGGCCCCCAAGUUCCCUAGCAAGCUUGGAAUUCUCGGGUGCCAA,0.417

# Series 3
# Target: RING finger protein unkempt homolog, zinc fingers 1-6, GST-SBP tag (UNK, Homo sapiens, UniProt Q9C0B0, residues 30-357)
# Method: RNA Bind-n-Seq
# Molecule type: RNA
# Sample: in vitro
# Tested at: not given
# Setting: RNA with constant flanks, human and mouse sites, ends assumed
# Relative to: input RNA pool
# Reading: higher = stronger binding
# Residues (chain): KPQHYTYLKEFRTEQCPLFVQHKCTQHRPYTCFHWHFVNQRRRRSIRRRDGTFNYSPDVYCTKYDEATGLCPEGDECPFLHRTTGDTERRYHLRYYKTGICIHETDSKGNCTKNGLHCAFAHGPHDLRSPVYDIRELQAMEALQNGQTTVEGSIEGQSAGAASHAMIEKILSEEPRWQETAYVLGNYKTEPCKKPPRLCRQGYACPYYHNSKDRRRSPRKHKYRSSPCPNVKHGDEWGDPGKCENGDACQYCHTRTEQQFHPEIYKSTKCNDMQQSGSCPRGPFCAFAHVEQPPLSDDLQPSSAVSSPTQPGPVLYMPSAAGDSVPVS
Strand,bound/input enrichment
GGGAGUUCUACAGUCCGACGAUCGAAUUCAUGCAUGAGACCCAUGAUGGAGUCCAGGAUAUGGCUUGUGACACAUUUAUUAAAAUAGCUCAAAAAUGCCGUAGGCAUUUUGUUCAGGUUCAAGUUGGAGAAGUAAUGCCGUUCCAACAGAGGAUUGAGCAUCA,0.49 ratio
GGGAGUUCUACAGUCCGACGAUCGGGAGAACUGCGCUGCAGGUUAUGAAACUUGGAAAUCCGGAGAUUGCCAGGAGGCUUCUCCUCAGAGGUGCUAAUCCCAAUUUGAAAGAUGGAACUGGUUUUGCUGUCAUUCAUGAUGCUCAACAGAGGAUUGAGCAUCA,0.919 ratio
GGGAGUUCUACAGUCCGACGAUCAUCCCUGAGAAUGCUAUAUUUGGUCCCUGUGUCCUGAGCCAUACUUCCCUAUAUGACAGCAUAGCUUUCAUAGCUCUCAAGUCUACUGACAAGAGAACAGUACCGUAUAUCUUUCGGGUACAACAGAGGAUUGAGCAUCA,0.0973 ratio
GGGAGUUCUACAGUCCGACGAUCGCUGGCCCAAGGACUCUAAAUUUCAAAAUAAACAGAGAAUUAUUAACAAAGGCAGUAUUGCAACAAGUUACUGAAGAUGGCUGUAAAUAUGGGUUAAAAAGUGAACUUUUCUCAGAUCUUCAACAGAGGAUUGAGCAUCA,0.28 ratio
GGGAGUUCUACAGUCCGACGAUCAGACGUGCGCCACCACCGCCCACCUUAAAUUCUUACAGAUAAAAACUGUAUAUGUUUAUAAAUAGUUAUAAAGAACUAUUUUAUAUAAUAGCUAUUAUCAUUGUAGAAAUGACUUACAAACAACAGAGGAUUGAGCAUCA,0.595 ratio
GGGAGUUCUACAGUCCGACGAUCUUUGAGUCACAUAAGGAUGAAAUAUUCCAGGUUCAGUGGUCACCUCACAAUGAGACUAUUUUAGCUUCCAGUGGUACUGAUCGCAGACUGAAUGUCUGGGAUUUAAGUAAAAUUGGAGAGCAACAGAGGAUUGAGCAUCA,0.152 ratio

# Series 4
# Target: Histone acetyltransferase KAT6A, both winged helices, GST fusion (KAT6A, Homo sapiens, UniProt Q92794, residues 1-181)
# Method: protein binding microarray
# Molecule type: double-stranded DNA, one strand shown
# Sample: in vitro
# Tested at: not given
# Setting: 8-mer, flanks averaged, mean of 2 arrays, mostly near background
# Relative to: not given
# Reading: higher = stronger binding
# Residues (chain): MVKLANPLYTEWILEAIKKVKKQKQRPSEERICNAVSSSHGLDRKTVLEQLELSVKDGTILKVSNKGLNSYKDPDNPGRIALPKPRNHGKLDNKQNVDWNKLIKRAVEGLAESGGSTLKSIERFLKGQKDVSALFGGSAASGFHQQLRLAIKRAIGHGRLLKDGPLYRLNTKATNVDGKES
Strand,E-score
GAAAGGTC,0.0376
ACTGTTAG,-0.0381
ACTCTTAA,-0.201
CCGAGGGC,0.086
CAGACAGG,-0.0245
AAGTAGAA,-0.168
CAAAGCTG,-0.016
GACTGTAC,-0.0606
AGCGTAGC,0.171
CGGAGGCA,0.0503
GCGACTTA,0.203
ATTAGCTC,-0.159
CGGAACAG,0.192
ATCCAAGA,-0.139
ACCCGTTA,0.235
AAGAGTCC,-0.0322

# Other studies, line by line
# P1: CABLES2 docking peptide (human); ICAKRSLCAAFSV; partner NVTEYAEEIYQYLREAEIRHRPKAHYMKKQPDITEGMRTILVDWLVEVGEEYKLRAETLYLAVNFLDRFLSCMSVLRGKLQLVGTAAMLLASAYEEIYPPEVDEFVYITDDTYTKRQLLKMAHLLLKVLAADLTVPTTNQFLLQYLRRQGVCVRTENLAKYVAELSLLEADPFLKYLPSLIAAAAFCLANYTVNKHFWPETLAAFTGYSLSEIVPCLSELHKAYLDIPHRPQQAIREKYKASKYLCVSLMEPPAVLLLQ
Substance,tested on,assay,test system,setting,how to read,measurement,result
RRRRLLFWDKETQI,,peptide binding,"peptide, yeast competitive growth",added: B2-Cln2 chimera,direction not given,enrichment score,-1.26
LQVDDDSGDPLNLVKA,Saccharomyces cerevisiae,"mating arrest growth, competitive growth deep sequencing","peptide, no Cln2 overexpression",peptide tiling library,direction not given,enrichment score,-0.109
P1 F11A,"CCNA1, cyclin fold, Cln2 fusion (human)","yeast growth competition, sequencing",yeast,weak parent motif,"relative to: not given, higher = stronger binding",normalised enrichment score,0.411
GSALKKLFTSTGL,Cln2 (Saccharomyces cerevisiae),"peptide binding, competitive growth sequencing","peptide, Saccharomyces cerevisiae, unfused Cln2 strain",mutational scanning library 1,direction not given,enrichment score,-1.55
